Measurements collected from several papers.
A part holds a random share of what one study measured. Positions count from the first letter of the parent shown.

Set 1 — target: CCND2, cyclin fold, Cln2 fusion (human); technique: yeast growth competition, sequencing; medium: yeast; notes: weak parent motif; baseline: not given; reading: higher = stronger binding
Starting sequence: RB1 docking peptide (human); PKPLKKLRFDIEG; partner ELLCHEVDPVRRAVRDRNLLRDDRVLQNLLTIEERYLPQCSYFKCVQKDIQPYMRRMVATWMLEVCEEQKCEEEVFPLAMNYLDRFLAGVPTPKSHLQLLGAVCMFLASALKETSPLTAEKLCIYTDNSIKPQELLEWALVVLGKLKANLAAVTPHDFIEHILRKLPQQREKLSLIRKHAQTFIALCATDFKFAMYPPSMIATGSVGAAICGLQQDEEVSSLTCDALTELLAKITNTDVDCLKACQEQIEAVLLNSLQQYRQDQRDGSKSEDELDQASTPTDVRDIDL
Change | normalised enrichment score
PKPLKKGRFDIEG [L7G] | 0.0899
PKPLKELRFDIEG [K6E] | -0.165
PKPLWKLRFDIEG [K5W] | 0.115
YKPLKKLRFDIEG [P1Y] | 0.413
PKPLKKLRWDIEG [F9W] | 0.224
PKPLKKQRFDIEG [L7Q] | 0.0353
PKPLKKLRLDIEG [F9L] | 0.478
PKPLKKLRFDIVG [E12V] | -0.329

Set 2 — technique: protein-binding microarray; molecule type: double-stranded DNA, one strand shown; medium: in vitro; concentration: 250 nM; notes: 60-bp whole probe; together with: salmon DNA 0.4 mg/ml; baseline: random background probes; reading: higher = stronger binding; all sequences stand within: GCCTAGCAC … GTCTTGATTCGCTTGACGCTGCTG
Target: Interferon regulatory factor 5, full length, phosphomimetic (IRF5, Homo sapiens, UniProt Q13568-2, residues 1-514, K96S/S451D/S453D/S456D/S462D)
Sequence | log fluorescence [z-score]
ATTTTGAGGTGGAGAGATAAGTGCTAG | 0.403
TTAGGTCTCGGTCACGGTTAGTGCTAG | 0.44
GACGGTTTCGACTTTCGGGAAGTGCTA | 8.43
GACGGTATCGACTATCCGGACGTGCTA | 2.82
TTAGGCTTCGGTCTCGGTTAGTGCTAG | 1.27
ACGCATGTGGGTTCCATCATGTGCTAG | -0.36
TTAGATTTCGGGTTTCGAGTAGTGCTA | 6.53
TTATGTCTCCTTTTCCTTTAGTGCTAG | 0.983
GACGGTCTCCTTCTCTTGACGTGCTAG | -0.108
GGCGAACTGGGGTTTCGAGACGTGCTA | 0.865
TTAGGTTTCGGGAATGGGTTAGTGCTA | 7.06

Set 3 — technique: RNA Bind-n-Seq; molecule type: RNA; medium: in vitro; concentration: 365 nM; baseline: no-protein control; reading: higher = stronger binding
Target: RNA binding protein fox-1 homolog 2, RRM domain, GST-SBP tag (RBFOX2, Homo sapiens, UniProt O43251-10, residues 100-194)
Notes: natural RNA segment, single round, ends assumed
All sequences stand within: GGGAGUUCUACAGUCCGACGAUC … UGGAAUUCUCGGGUGCCAA
Residues (chain): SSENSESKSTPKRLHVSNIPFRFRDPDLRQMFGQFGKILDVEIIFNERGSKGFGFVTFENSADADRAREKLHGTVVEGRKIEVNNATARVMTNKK
Sequence | RBNS enrichment (R)
AUUUAAAGAAAGGUCUAUGCUGUCAUAUGGGGUUUAUUGGGAACUAUCCUCCUGGCCCCACCCUGCCCCUUCUUUUUGGUUUUGACAUCAUUCAUUUCCACCUGGGAAUU | 0.457
GCUAGAGGAAGCAGCCUUCCCACACGUCAGCACCGUAUGCUAAUUUGCUGGAACAGGACGGUUUGGAUGUUUAUAGGGGAAAUGGAUAGUAGAUGUUAGGACCAACUGAG | 8.3
GCAUGGUGCACUGUCGUCUUUGCUCUUCAUUGAGGAUCUUCCACCCACCAUGGUCCCCUCAGUUGCACCUAGUGUCUAGCAAUGUGUCUUGCAAGAAAUUCCUAAUUCUU | 2.24
UCUCCAUACAAUAAGACACCUCCGAAGCAAAAUGGCGGCCCUUGCUCCAGGCAGGACAUCAGACUGUCUGGGGAGUUGGCCCUGGGCUUCUGUGUUGUGUGCAGAGACUG | 0.332
AGAAAUAGGGUUACGUCCAUUAGGAAAAUCCCAGUUUGCAGGAGUGCAAUCACAUCAAAAAAACAACCAGCCAGGAUUAAAGGUAUUAUAAAUCCUCAUAGCGGAACAUU | 0.426
UUAUUAAAAUGUAUAACAAUGUGAUUUUUCAAUGGUAUUAGUUCAAAUUGACGUGGAUUCAUGCCACAUGGAAAUCUUUAAUUUAUUUGUUGAGGUACCAUAUAGCCAGG | 0.347
CGAGUGUGAACAUGGCACUGCUGUUCCCUUCCCCCUCCCUGCACCCGCCGCAGCCUGCCAUCCCAUUUGGAUGUAUCAAUGCCACUGAGUUGUCUGUCCGUCCGUGGAGC | 0.713
AGAGAAGCUGCCUCUGUAGAGUGGCCGAUGUCACAGAGAGCCAGGCUCCAUGGGGAGCCAUCUAAGUUCUUUUCUUUUGGAAGAUUGGGUGUCUCGGAGAGUUGCCAUAU | 0.663
UAGACAGUGUUUGAUUAUUUUCCUUGUGUAAGUUUGAUUUAAAACGUUGGAAAUGUGUGCUUUUUAGUGUUUACUAAAGUGAUAAGAAAAUAAAGCAUUCAAUACACUAU | 0.791

Set 4 — technique: Sort-seq; item: YFP reporter; medium: E. coli; notes: PhoQ-PhoP variant library; together with: 10 µM Mg2+; baseline: high Mg2+ state; reading: higher = stronger signaling
Molecule: PhoQ, residues 284 288 289 292 302 303 NLSRDF
target | fold induction
PhoP, residues 12 14 15 18 19 LHTVL (Escherichia coli, UniProt P23836) | 0.811
PhoP, residues 12 14 15 18 19 TQAML (Escherichia coli, UniProt P23836) | 9.43
PhoP, residues 12 14 15 18 19 NQCAL (Escherichia coli, UniProt P23836) | 16.9

Some of these lines once more (set 2):
Sequence | log fluorescence [z-score]
ACGCATGTGGGTTCCATCATGTGCTAG | -0.36
GACGGTATCGACTATCCGGACGTGCTA | 2.82
TTAGGTCTCGGTCACGGTTAGTGCTAG | 0.44
TTAGGTTTCGGGAATGGGTTAGTGCTA | 7.06
GGCGAACTGGGGTTTCGAGACGTGCTA | 0.865
